Measured values pooled from the literature.
Every numbered part comes from another study and shows a few of its results, in no order.

Set 1 — method: protein-binding microarray; molecule type: double-stranded DNA, one strand shown; medium: in vitro; concentration: not given; direction: higher = stronger binding
Target: Max dimerization protein 1, bHLH-zipper, MAX partner unstated (MXD1, Homo sapiens, UniProt Q05195, residues 56-136)
Setting: k-mer, scored over probes, only values ≥0.25
Residues (chain): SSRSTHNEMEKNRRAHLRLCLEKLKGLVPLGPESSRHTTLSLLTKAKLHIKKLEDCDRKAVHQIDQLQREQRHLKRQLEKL
Sequence | E-score
CGTGTGAG | 0.332
ATGTTGCA | 0.266
ATTGCACG | 0.286
ACGTGATG | 0.356

Set 2 — method: protein binding microarray; molecule type: double-stranded DNA, one strand shown; medium: in vitro; concentration: not given; relative to: not given; direction: higher = stronger binding
Target: Histone acetyltransferase KAT6A, both winged helices, GST fusion (KAT6A, Homo sapiens, UniProt Q92794, residues 1-181)
Setting: 8-mer, flanks averaged, mean of 2 arrays, mostly near background
Target sequence (chain): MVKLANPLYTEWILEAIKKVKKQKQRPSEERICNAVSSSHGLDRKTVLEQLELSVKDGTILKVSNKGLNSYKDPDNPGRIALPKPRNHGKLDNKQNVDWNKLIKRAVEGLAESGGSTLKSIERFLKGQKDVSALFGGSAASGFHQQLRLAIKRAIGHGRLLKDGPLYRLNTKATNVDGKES
Sequence | E-score
GGATGAAC | -0.0703
AGATGCGG | 0.0711
AAAAGAAC | -0.00751
AGGTATTA | -0.154

Set 3 — method: protein-binding microarray; molecule type: double-stranded DNA, one strand shown; medium: in vitro; concentration: 940 nM top; setting: 60-bp whole probe; with: salmon DNA 0.4 mg/ml; relative to: random background probes; direction: higher = stronger binding; all sequences stand within: GCCTAGCAC … GTCTTGATTCGCTTGACGCTGCTG
Target: Interferon regulatory factor 5, full length, phosphomimetic (IRF5, Homo sapiens, UniProt Q13568-2, residues 1-514, S451D/S453D/S456D/S462D)
Sequence | fitted relative affinity
TCAATGTTACATTTATAACTGTGCTAG | -0.227 z-score
TCATCTCTCAAAAGTCACACTGTGCTA | 0.919 z-score
TTAGATATCACACTGGATTAGTGCTAG | -0.269 z-score
GAAGATGTCAAACTCACTCAGTGCTAG | -0.557 z-score
GACGGTATCCTACCGCTGACGTGCTAG | -0.372 z-score

Mixed results
Molecule | target | test | system | conditions | how to read | measurement | result
PhoQ, residues 284 288 289 292 302 303 TVTVVA | PhoP, residues 12 14 15 18 19 LHSVW (Escherichia coli, UniProt P23836) | Sort-seq, item: YFP reporter | E. coli | PhoQ-PhoP variant library, with: 10 µM Mg2+ | relative to: high Mg2+ state, higher = stronger signaling | fold induction | 7.68

Some of these lines once more (set 1):
Sequence | E-score
ACGTGATG | 0.356
CGTGTGAG | 0.332
